Results collected from several papers.
Parts stem from different laboratories: compare values within a part only.

Block 1
Target: Ras GTPase-activating protein-binding protein 1, full length (G3BP1, Homo sapiens, UniProt Q13283)
UniProt Q13283, sequence (whole entry, looked up): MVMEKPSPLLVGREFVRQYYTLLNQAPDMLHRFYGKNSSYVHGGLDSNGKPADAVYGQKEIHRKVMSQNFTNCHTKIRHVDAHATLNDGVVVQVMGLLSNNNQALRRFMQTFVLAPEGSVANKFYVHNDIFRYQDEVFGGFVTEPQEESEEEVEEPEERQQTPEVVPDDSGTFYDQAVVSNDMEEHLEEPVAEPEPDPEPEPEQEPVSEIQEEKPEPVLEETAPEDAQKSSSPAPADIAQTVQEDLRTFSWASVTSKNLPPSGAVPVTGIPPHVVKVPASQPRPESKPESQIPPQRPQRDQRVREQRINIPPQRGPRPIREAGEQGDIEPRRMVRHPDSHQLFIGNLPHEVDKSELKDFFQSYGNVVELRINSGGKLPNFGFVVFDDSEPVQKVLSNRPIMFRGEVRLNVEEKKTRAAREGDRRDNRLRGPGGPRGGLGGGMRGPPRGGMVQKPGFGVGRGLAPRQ
Technique: RNA Bind-n-Seq
Form: RNA
Matrix: in vitro
Tested at: 200 nM
Notes: whole 134-nt RNA, ends assumed
Together with: 150 mM KCl
Baseline: input library
Reading: higher = stronger binding
Shared flanks, not repeated: GGGAGUUCUACAGUCCGACGAUC … UGGAAUUCUCGGGUGUCAAGG
Strand | log2 enrichment
ACCAUGCAGGUGGAAAUCUUUGGGAAGUGGGGCAAGGGGGGGAUAGGGAGGGGGGUAACACUUUGGGAACAGGUGGUCCCAGGUCGUUUC | 0.835
AAGUCCUGUGCUACACAUCGUAUGUACCGAAUCGGGGUUUUUGGGGUGGGGUGGGGAAAGUAUUAUGUUACGCCGUUCGGAUCUGCACUU | 0.86
AUUUGUACACAGACAGGGAAACUGGCAAGCUGAAGGGAGAGGCAACGGUCUCUUUUGAUGACCCACCUUCAGCUAAAGCAGCUAUUGACU | 0.0167
AAGUCCUGUGCUACACAUCGUAUGUACCGAAUCGGGGUUUGGUUUGGGGUUUGGGGAAAGUAUUAUGUUACGCCGUUCGGAUCUGCACUU | -0.0186
AGUCCUGUGCUACACAUCGUAUGUACCGAAUCGGGAAAAAGGAAAAAGGGGAAAAAGGAAAGUAUUAUGUUACGCCGUUCGGAUCUGCAC | -0.915
UCAAGUCCUGUGCUACACAUCGUAUGUACCGAAUCGGAAAAAAAGGUGGAAAGGAAAGUAUUAUGUUACGCCGUUCGGAUCUGCACUUCC | -0.902
ACCAUGCAGGUGGGCAUCUUUGGGAAGUGGGGCAAGGGGGGGAUAGGAAAGGGGGUAACACUUUGGGAACAGGUGGUCCCAGGUCGUUUC | 0.99
UCAAGUCCUGUGCUACACAUCGUAUGUACCGAAUCGGUGGAAAAAAAGGAAAGGAAAGUAUUAUGUUACGCCGUUCGGAUCUGCACUUCC | -0.831
AGUCCUGUGCUACACAUCGUAUGUACCGAAUCGGUUUUUGGAAAAAGGUUUUUUUGGAAAGUAUUAUGUUACGCCGUUCGGAUCUGCACU | -1.72
AAGUCCUGUGCUACACAUCGUAUGUACCGAAUCGGGGAAAAGGAAAAGGGGAAAAGGAAAGUAUUAUGUUACGCCGUUCGGAUCUGCACU | -0.544
UAACUUUAGAGGAGGAUCUGAUGGAUAUGGCAGUGGACGUGGAUUUGGGGAUGGCUAUAAUGGGUAUGGAGGAGGACCUGGAGCUGGCAA | 0.184
AAGUCCUGUGCUACACAUCGUAUGUACCGAAUCGGGGCCCGGGGCCCGGGGCCCGGAAAGUAUUAUGUUACGCCGUUCGGAUCUGCACUU | -1.45
AAGUCCUGUGCUACACAUCGUAUGUACCGAAUCGGGAAAGGGUGGGUUUUUUUGGGAAAGUAUUAUGUUACGCCGUUCGGAUCUGCACUU | 0.258
GCAGGAAGUAAAAACAAAUGGAAAUGCUUCGGAUAGUAAAAGGGGUGGGGGUUGCUAAGGAAAGGGUGGGAUGGGAGUGGGUAAAGAGUU | 0.603

Block 2
Target: RING finger protein unkempt homolog, zinc fingers 1-6, GST-SBP tag (UNK, Homo sapiens, UniProt Q9C0B0, residues 30-357)
Technique: RNA Bind-n-Seq
Form: RNA
Matrix: in vitro
Tested at: not given
Notes: RNA with constant flanks, human and mouse sites, ends assumed
Baseline: input RNA pool
Reading: higher = stronger binding
Shared flanks, not repeated: GGGAGUUCUACAGUCCGACGAUC … CAACAGAGGAUUGAGCAUCA
Residues (chain): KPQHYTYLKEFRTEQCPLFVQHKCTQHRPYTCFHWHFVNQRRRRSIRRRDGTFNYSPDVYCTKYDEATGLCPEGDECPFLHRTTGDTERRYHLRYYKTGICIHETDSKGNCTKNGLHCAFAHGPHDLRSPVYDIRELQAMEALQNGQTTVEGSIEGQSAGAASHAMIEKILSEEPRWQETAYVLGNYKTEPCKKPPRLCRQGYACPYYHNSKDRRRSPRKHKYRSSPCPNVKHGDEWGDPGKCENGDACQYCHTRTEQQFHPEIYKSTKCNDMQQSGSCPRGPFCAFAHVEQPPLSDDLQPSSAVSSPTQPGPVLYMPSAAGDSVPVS
Strand | bound/input enrichment [ratio]
CAGCAGUCAUCUCUCGGUAGGGAUUCACAGGGUCAUGGGCGUGACCUGUCUGCAGCAGGAAUAGGCCUUCUUGCUGCUGCUACCCAGUCUUUAAGUAUGCCAGCAUCUCUUGGAAGGAUG | 0.0723
GCGAUAUCAAACAGAACUAUCUGGAAGCAUUUACUUCCAAUCCAAAACGGAGCUUUGUCUAGUGCUUGUCACAAAUCCACAUACUCUUCUCUUCCGGAUGACUACAAUUGCCAGGUGGAC | 0.225
GAGCGUCUUGCCCGCACUGGGAUCAUCGUGACCACUAGUGAGGCUGUCCUCCUACAGCUGGUGGCUGACAAAGACCACCCGAAGUUCAAGGAAAUUCAGAACCUAAUUAAGGCGAGUGCC | 0.188
AAUGUGCAAGAAAGGGAAGCACAGUUUGGGACAACAGCAGAGAUCUAUGCCUAUCGAGAAGAGCAGGAGUUUGGAAUUGAAGUAGUGAAAGUGAAAGCAAUUGGAAGGCAGCGGUUCAAG | 0.399
CUGAAUGGCUUGGAAUAUGUACCACAAAGACUGAGAAAUCUUAAUGAAAUUAACAAGCUGCUGGCACACCGGCCCUGGCUGAUCACAAAAGAGCACAUUCAGAAACUUGUCAAAACUGGA | 0.216
GACGACCUGUUCCGCUUCAACAACAUUAACUUGGAUCCACUUACAGAAACUUAUGGGAUUCCUUUUUACUUACAGUACCUUGCGCACUGGCCAGAGUAUUUCAUCGUCGCUGAAGCACCU | 0.222
UCUUUUGAGGUGAUGGUGCUGGCCGAGCUGUUUCUGGAGAUGCUCCAGAGGGAUUUUGGCUAUAGAGUUUAUAAGAUGCUACUGAGCCUUCCUGAAAAGGUCGUGUCCCCACCUGAACCU | 0.927
UUCUUAGACCUUUUAGACAUCUUAAUAAGAAGUCCUGGGAGUAUAAAACGAGAAGAAAAGCUAGAAGAUCUUAAGCUACUUUUUGUACAUGUACAUCAUCUUAUAAAUGAAUAUCGACCC | 0.645
GAAAAGCCAUCUCCUAUUCAGGAGGAGAGCAUUCCCAUUGCUUUAUCUGGUAGGGAUAUCUUAGCUAGAGCAAAAAAUGGAACAGGCAAGAGCGGUGCCUACCUCAUUCCCUUACUUGAA | 0.222
AAAGAAGAAAGAAAAGGAAAAAAAAUAUAAAAGACAGCCAGAAGAAUCUGAGUCAAAGACGAAAUCUCAUGAUGAUGGGAACAUAGAUUUAGAAUCUGAUUCCUUUUUAAAGUUUGAUUC | 0.385
AUGUGGUAUCGUUUACGGUUAUUAAAACCCCAGCCAAAUAUUAUUCCUACAGUAAAGAAAAUAGUUCUGCUUGCAGGAUGGGCAUUGUUCUUAUUCCUUGCAUAUAAAGUUUCCAAAACA | 0.327

Block 3
Target: Sal-like protein 4, full length isoform A (SALL4, Homo sapiens, UniProt Q9UJQ4, residues 1-1053)
UniProt Q9UJQ4, sequence (whole entry, looked up): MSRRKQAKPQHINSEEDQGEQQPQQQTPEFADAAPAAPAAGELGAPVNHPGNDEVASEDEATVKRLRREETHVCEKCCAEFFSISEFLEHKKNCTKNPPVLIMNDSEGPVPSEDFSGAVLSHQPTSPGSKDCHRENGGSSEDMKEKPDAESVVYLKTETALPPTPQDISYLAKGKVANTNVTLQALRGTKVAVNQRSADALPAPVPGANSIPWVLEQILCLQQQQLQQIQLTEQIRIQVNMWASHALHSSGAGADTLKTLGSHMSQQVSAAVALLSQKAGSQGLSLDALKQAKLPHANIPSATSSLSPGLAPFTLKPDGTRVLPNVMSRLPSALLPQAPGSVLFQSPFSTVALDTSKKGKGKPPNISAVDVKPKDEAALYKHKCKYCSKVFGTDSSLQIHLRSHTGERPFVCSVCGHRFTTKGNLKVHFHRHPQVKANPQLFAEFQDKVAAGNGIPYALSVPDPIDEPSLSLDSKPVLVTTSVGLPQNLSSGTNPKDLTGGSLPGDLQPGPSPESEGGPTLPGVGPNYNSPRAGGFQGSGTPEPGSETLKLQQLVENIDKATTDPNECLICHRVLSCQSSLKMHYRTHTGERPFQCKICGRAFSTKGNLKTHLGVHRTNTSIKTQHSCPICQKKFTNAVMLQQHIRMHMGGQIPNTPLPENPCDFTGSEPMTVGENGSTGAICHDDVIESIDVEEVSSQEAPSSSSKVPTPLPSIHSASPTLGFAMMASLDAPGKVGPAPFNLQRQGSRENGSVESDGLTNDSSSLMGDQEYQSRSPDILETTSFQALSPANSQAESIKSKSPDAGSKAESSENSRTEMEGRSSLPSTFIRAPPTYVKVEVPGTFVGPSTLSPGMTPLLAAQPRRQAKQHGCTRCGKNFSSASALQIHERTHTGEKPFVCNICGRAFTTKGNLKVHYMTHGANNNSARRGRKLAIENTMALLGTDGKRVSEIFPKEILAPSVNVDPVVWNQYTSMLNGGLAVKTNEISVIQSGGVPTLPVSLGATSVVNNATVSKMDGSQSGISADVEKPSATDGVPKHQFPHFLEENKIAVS
Technique: universal PBM
Form: double-stranded DNA, one strand shown
Matrix: in vitro
Tested at: 600 nM
Notes: 8-mer, flanks averaged, mean of replicates
Reading: higher = stronger binding
Strand | E-score
CACATGGG | -0.231
ACTAAGAT | 0.168
ACTAAAGC | 0.074
CGTAAAGC | -0.0864
AGAAACCA | -0.0145
CACAGCCA | -0.233
AAGTTCGC | -0.15
TACCAACA | 0.0912
CGGGTTCC | -0.267
CGGGCGTA | -0.262
CGTGAAAA | 0.132
CCGTTATA | 0.179
CTTGTGTC | -0.131
GAATAGGC | -0.0135
CGTGCCCC | -0.326
AATCCTAA | 0.0878
GACCTATA | 0.249
GGAGGGTA | -0.0803
AGGTGTAA | 0.0528
CGGCATAA | 0.15
CACACTTC | -0.0478
GCCGTAGA | -0.164
ATGGAATG | -0.0457
GTTAACGA | 0.101

Block 4
Target: RNA binding protein fox-1 homolog 2, RRM domain, GST-SBP tag (RBFOX2, Homo sapiens, UniProt O43251-10, residues 100-194)
Technique: RNA Bind-n-Seq
Form: RNA
Matrix: in vitro
Tested at: 365 nM
Notes: natural RNA segment, single round, ends assumed
Baseline: no-protein control
Reading: higher = stronger binding
Shared flanks, not repeated: GGGAGUUCUACAGUCCGACGAUC … UGGAAUUCUCGGGUGCCAA
Construct (chain): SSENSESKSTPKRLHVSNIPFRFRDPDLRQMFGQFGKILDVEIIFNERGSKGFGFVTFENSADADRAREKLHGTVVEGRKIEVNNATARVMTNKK
Strand | RBNS enrichment (R)
CAUAGCAUCCAAUGAUUUUUUGGUGUCUGGCUAUGAAUACUAUGGUUGAGAAUUGUAUUCAGUGAUUGUUUCUGCACACUUUUCAAAUAAAAAAUGAAUUUUUAUCAAUU | 1.16
GCUGGAUGGGAUGGGGCUCCAAGUCUGAGAUUUCAUUGAUACUAGGCAAUAUGGUUUGUAAAAUACAGAAACACUGCCCAAUUGUGAUGUUGUCAAUGGGCUCCUGAUGC | 0.538
GUGGCGACUGCUCUUAUUUAAGGAAACCACCUUGGGUCUGAGAGGUGGAGAGGCCGUGGGAUUAAGCACAAUAGGAGGCGCAGCUCCUGCUUCUACCGUUAGGCGCUGCA | 1.4
AGCGGAUCCUGCGGCUCUCGCUGACCGAACAGUAGCGCCUCCUGCUGGGACCCUCGCCCACUCCACGCAGGACCCGGGUCUGCGCACCUGCCGAGCGGCUGCUGGAGUCU | 0.289
UCCUGGAAAUCGACACACUGAACAGUGCACUUUUAGUUCACUGCUAAACAAAGCACACUUUUCAGGACUUGCUGGGUCACCUUUUCCUGAGGAAUGAUAGCGAAGAGUGU | 0.318
ACUCAGGUAAUCUCCAUUUCUGGUUUUAUAUUUUCUGUACAAACUGCCUGGGUUUUAUUUUUCUAAUCAGCAAGGUGCUUCACUGCCUUCUUGAGACGCCUCUCAAAGCU | 0.386
CAACCCAGCUGUAGGCGCUUACACUGAAAUCUAAGUCUGUAUAGUGAACGCCAGCGGCGGCCGACUUCUAUCCCAAGCACUGCGCAAAAGCAGAGGAACGGAAAGGGAAA | 0.729
CAGGAAAUAUUUUAAUUGGGCUGAUUUUAAUUAGGCUGUAUCAUUGAUGAUUACUGGAAUCGAUUUUAUGUCUUUUGUAUUUUAAUCACUUGAGUUAAUCAACCACUGGC | 0.602
GCCAGACCUCCUGACCCAAACACAGGGUCAGCCACUGAGGUUCCUGACUUAUCAGUGCCCAUCACUAUCUGGCGUUCUGAAAGUCCCAUAGAAAAGUGUCAGGAAAGCAA | 0.247
GUCUCCAGCGCCACACAUCCGAGGUGUACUUUGUGUGCAGAAUGUGUCUUCCUUCUGGCCUGUAAUCCCCUUCCCAUGAAAGAUUAAUGAGGGAAAUCUUUAUAUUCUGU | 1.33
GAUCAGCCUCAGCCAGAGGACGAGGAGGCAGGUGACUGUCAUCAGCCUCGACUGCCACAGAGAAGCAUACUCUUGCAUCUGGGUUUGUUUACAGCGAUUCCGUGGACCGG | 1.18
GUUUUUGAAGUACAUCUUCUGGCCCCUUGAGUACUGCCAGAGGCAAAAGAUGUUUGUUUCUUAUUCAUUCCACUUUUGUCUCCUGGGAUCCCUUCUGUAGCCUAAAGUAU | 0.554

Block 5
Target: Histone acetyltransferase KAT6A, winged helix 2, GST fusion (KAT6A, Homo sapiens, UniProt Q92794, residues 85-181)
Technique: protein binding microarray
Form: double-stranded DNA, one strand shown
Matrix: in vitro
Tested at: not given
Notes: 8-mer, flanks averaged, mean of 2 arrays, mostly near background
Baseline: not given
Reading: higher = stronger binding
Construct (chain): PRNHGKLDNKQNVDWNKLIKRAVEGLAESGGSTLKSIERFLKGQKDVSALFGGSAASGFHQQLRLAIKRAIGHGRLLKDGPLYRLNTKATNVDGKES
Strand | E-score
ACTTGTAC | -0.166
ACGCACCT | 0.00311
CCAGATGC | 0.0409
AAGGCGAT | 0.0423
ATATTAAC | 0.134
CCGACTCG | 0.187
GTCGAATA | -0.0485
AATACCAT | -0.115
ACAGGGTG | -0.104
CGGTAAGA | 0.0885
ATTTTGCG | 0.0577
CTTTAGTC | -0.0775
CACGTGGC | -0.0846
CCAGGCGG | 0.286
GAACTGGA | 0.0765
ATGCTATC | 0.00428

Excerpt of the above (block 5):
Strand | E-score
CTTTAGTC | -0.0775
ATGCTATC | 0.00428
CACGTGGC | -0.0846
ATTTTGCG | 0.0577
ATATTAAC | 0.134
ACGCACCT | 0.00311
GAACTGGA | 0.0765
CCAGATGC | 0.0409
CCAGGCGG | 0.286
AAGGCGAT | 0.0423
